# Measured values from different studies.
# Parts stem from different laboratories: compare values within a part only. Substitutions count along the parent as printed.

# Block 1
# Target: RNA binding protein fox-1 homolog 2, RRM domain, GST-SBP tag (RBFOX2, Homo sapiens, UniProt O43251-10, residues 100-194)
# Technique: RNA Bind-n-Seq
# Molecule type: RNA
# Medium: in vitro
# Concentration: 365 nM
# Setting: natural RNA segment, single round, ends assumed
# Reference: no-protein control
# Direction: higher = stronger binding
# All sequences stand within: GGGAGUUCUACAGUCCGACGAUC … UGGAAUUCUCGGGUGCCAA
# Residues (chain): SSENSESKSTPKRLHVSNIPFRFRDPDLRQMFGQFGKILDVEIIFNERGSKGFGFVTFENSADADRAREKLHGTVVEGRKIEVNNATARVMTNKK
Oligonucleotide,RBNS enrichment (R)
CAAAAAAAACAACAAAAAAAGGAAAAAUAACGCUUCAAUGCUUUUAAAACAGCAAGAUAAUAGUUCUUUGAUACUUUGAGAGGCGCUUUGAUGACCCUCAUCCAAGUCUA,0.465
GUACACGCAUCCAGCAAGCACUUGACAAGGUUCCACAGGCCUAGAGAUUUUCUUCUGAGAAGAAUUUGUGUUUAAUUUUUGAUACCAACACUGAACAUUCAUCAGGGAAC,0.737
CCCUCUCUACCUUUUUUUAAAAGAAGAGAAUAUUUCUUAGAACUUUAUAUUAAAAAUAAACAGCUACAAGAAAGUCUUUUUCCAAUUGAGCAGUAACUGAAGAAAGUGUG,0.519
CCCUUUAUCCUACUCAUCCCCGAUCUGGUCCCCUGUUCUCCAUAGUCCUUCACCCCCAAGCACCACUGUACAGACUGGGGACCAGCCCCUUCCCUGCCUGUGUCUCUUCC,1.45
AGUGUUUUCUAUGAAGAUAAAUGGAUACUUCCUAAGUGGUGCCCUCAGAACCUGUGCACUCAUUUGCCCAGCAUUUCCUAGUGUCUAUUGGAUCAGAAACUGGUUUUACC,0.388
AGUGCGGUACAAUCUGGAGCCCACAGCUGUCGGUCAGAACCUCCUGUGAGACAGAUGGAACCUUCACAAGGGCGCCUUUGGUUCUCUGAACAUCUCCUUUCUCUUCUUGC,0.392
GAGAGAUGACGGGAGUGCGUUUCUCUGGGUUUGAUCUCCAUCCUGUUUUCUCCCAGACACACCACACCUACCUUGGGGGAAUGCCGUUGCCUGUUCCACCCCUUUGUUCA,6.55
UCCACGUCACGUCCAGCUGGGCCUGGCCAGUCUGUGGUUAUCCAUGUGGGAUGAGAUAACACCACAUCCUGCAGCUGUGAAGGGGGAUGGACAAGGGACGACGGCCGACG,0.618
GAAAAAAAGUACCAUUGUGCUAAACGCUACUGAGACUAACCAGGAAACCCUAACGAUGAAGAUGGUCCUGUCCCGGGAGCGGCUGGCUCCACCGAAGUGCUGGGGAGUUG,0.332
UGGCAUCUUUUUAAUACCAGGAACCCAGCGGCUCUAGCCACUGAGCGGCUAAAUGAAAUAAAGUGGAAAAAAAAAAAAAGGAAAAAACCAAAAGCAUAAAAAACCACAGC,0.618
AGGGUUCAUUCUCCUAGUGCCCCAAGUCCCCUCCUGCCUGGGGCUGCCCAGGGAUUGGACCUGGACCUGGCCAAGGCCUUUUGUGUGUGUCGCUGCUGCCGGGCAACGUG,0.323
AGGAAUCAGUCCUGUAGCUUGGGUGCCUCCUUAUUUGUUAAUUAGUGGCUUUUCAUGUUCUCCUUUAGCCAAGGCUCCCUUUUUCCAAGUGAUGUCUUUCAGGGAAGCAG,0.451

# Block 2
# Target: Ras GTPase-activating protein-binding protein 1, full length (G3BP1, Homo sapiens, UniProt Q13283)
# Sequence of UniProt Q13283 (whole entry, looked up): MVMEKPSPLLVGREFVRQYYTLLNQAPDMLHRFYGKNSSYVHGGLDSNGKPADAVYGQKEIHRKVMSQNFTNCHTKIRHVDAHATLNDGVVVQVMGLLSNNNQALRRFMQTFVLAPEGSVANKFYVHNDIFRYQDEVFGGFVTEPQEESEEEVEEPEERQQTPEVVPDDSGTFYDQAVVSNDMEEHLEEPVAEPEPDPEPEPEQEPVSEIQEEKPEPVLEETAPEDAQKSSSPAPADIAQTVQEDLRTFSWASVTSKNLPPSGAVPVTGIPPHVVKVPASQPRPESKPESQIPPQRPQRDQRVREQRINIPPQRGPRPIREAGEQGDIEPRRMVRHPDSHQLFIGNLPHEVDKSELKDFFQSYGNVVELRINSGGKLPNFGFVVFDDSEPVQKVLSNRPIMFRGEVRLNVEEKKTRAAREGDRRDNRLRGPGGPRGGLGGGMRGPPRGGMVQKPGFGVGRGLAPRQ
# Technique: RNA Bind-n-Seq
# Molecule type: RNA
# Medium: in vitro
# Concentration: 200 nM
# Setting: whole 134-nt RNA, ends assumed
# With: 150 mM LiCl
# Reference: input library
# Direction: higher = stronger binding
# All molecules: 7-deaza-guanosine replaces G
# All sequences stand within: GGGAGUUCUACAGUCCGACGAUC … UGGAAUUCUCGGGUGUCAAGG
Oligonucleotide,log2 enrichment
GUCCUGUGCUACACAUCGUAUGUACCGAAUCAAACCCCCCCAAACCCAAACCCCCAAAAAAGUAUUAUGUUACGCCGUUCGGAUCUGCAC,-0.0955
CUCAAGUCCUGUGCUACACAUCGUAUGUACCGAAUCGGUUUGGUUUGGGUUUGGAAAGUAUUAUGUUACGCCGUUCGGAUCUGCACUUCC,0.194
CCUGUGCUACACAUCGUAUGUACCGAAUCAAACCCCCAAAUUUUUUUAAAUUUUUUUAAAAAAGUAUUAUGUUACGCCGUUCGGAUCUGC,1.37
GUCCUGUGCUACACAUCGUAUGUACCGAAUCGGGGAAAGGGGAAAGGGGAAAAAGGGGAAAGUAUUAUGUUACGCCGUUCGGAUCUGCAC,0.518
AGUCCUGUGCUACACAUCGUAUGUACCGAAUCGGAAAAAAAGGAAAAAGGAAAAAGGAAAGUAUUAUGUUACGCCGUUCGGAUCUGCACU,-1.53
UGGCCCUGGUGGCAUGCGGGGAGGAAGAGGUGGCCUCAUGGAUGGUGGUGGUCCCGGUGGAAUGUUCAGAGGUGGCCGUGGUGGAGACAG,0.289
CACAGACAACACGCACCCACACAGACACAGAGGGAAGGGGUUGGGAUGGGGACAGGGUGCAAAACAGGGCGGGGUAGGACCCCAGCCCCU,0.0381

# Block 3
# Target: Hepatocyte nuclear factor 3-alpha (Foxa1, Mus musculus, UniProt P35582, residues 1-468, full length assumed)
# Technique: EMSA with sequencing
# Molecule type: double-stranded DNA, one strand shown
# Medium: in vitro
# Concentration: 10 and 20 nM
# Setting: whole designed probe, mean of two concentrations, ends assumed
# Reference: negative control set to 0
# Direction: higher = stronger binding
# All sequences stand within: GTGAGCGGTGCCCATTGATGGGGAAC … TTTCACTGGGATCGTGGGGAC
# Target sequence (chain): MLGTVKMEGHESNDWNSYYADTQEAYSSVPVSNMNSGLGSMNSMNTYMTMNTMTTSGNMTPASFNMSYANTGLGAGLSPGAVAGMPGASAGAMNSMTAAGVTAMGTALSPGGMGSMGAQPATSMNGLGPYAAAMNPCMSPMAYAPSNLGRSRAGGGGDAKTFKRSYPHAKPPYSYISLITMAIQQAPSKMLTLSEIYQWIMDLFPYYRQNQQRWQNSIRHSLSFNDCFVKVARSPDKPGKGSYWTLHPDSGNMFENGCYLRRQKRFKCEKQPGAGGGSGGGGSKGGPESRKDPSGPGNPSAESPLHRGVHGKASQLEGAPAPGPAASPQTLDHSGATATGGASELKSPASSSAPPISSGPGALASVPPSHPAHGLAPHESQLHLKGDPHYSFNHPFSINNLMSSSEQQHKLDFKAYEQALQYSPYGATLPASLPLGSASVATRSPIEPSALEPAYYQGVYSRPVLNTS
Oligonucleotide,normalised bound fraction [ratio]
CACATAGACTACAGTCTATGAAAAACATATTCATTTTTTAGGATAATATATAAGATCTCTGAAATGACAATTCACACAAAAGTAATAAAAATGTAATCTAGCATCAAAACTGATACAACAGATCACACTAATTGCCAAAAGTGCAGAAAGAGAAAAATTGGGTATAACAGCAATAACCTTATAAAATGTCAGA,0.00443
AGCAGAACCAATATAATCATGATTGCATACACCCATACGTTAATATGTTGGTAAATTGGATTTGTTATATAAAGAAATTGCAATGAAGTGCTAAGTAATCTAATATCAGATTACATTATAATCTCTATGGCATGTTATATTTTAATTTCTATCTAGAAATGCATTGTGAAACCTAATAAAAAATTTGAAGCTT,0.0255
TTTAATTTTGCCCTATGTAAACTTGCTCAGCTGTAAACAAACAAGCCATCATGGAGACTAGATCAAATAATAAGCTCGTTGACTCCACGCTAGAGTAATCTAGGACATCAGAGTAAGTCATAGCCCTACAGATGTTAGACAAAAGGAAGGATTTTTACGTCTTTATTGATGTAAATTACATACTGTAGGAGTC,0.394
CCCTCATCCTGGGTGTCGGGGTGGGAGGTGTTCTCATCATGAATGGGAGGCGTACCCAGATCCAGCTCTGCCTTTTTTTAACCAAACCACATTTGTTTACACTCGCTGGTGACTCACCATTAATCGACATAGCAAGATATGATACATGCCAGGAGAGAAAAAGAAAGTGCTGATGGAAAAATAATCTCATTAG,0.239
GCATAAGCATTGCCAAGCCCAGATCTAATGGATAGTCACTTCAAGGCTGCTCTGTGTGGAAGCCTTACTCTTGTTTTTTTCACCTGCCTATCCAGATGACCTATTTATTTTTATGTGAATGTCATTGTTTTATTCGCTTTAACAATATATTACATTTTGTGTCTGGTAATATAAGTCATTCTTTAATAATCTT,0.0508
TTTAAAAAGCATTTAACCTAAGTACTGTTTTAGAGGTGACAAATTTAGTGGTGTGTCCCCATGAGAAAATATTTCAAACATTACCAAAATTCCTTGTTTACATATTACATCATCGTTCCTAGAAAATATATCTAAATCCTCTATTTTAGGTATAAAAGCAAAAAAAAGTAAGGTTTCAGTTGATTTCACTTAA,0.3
ATCTTCCCCCTCTTCCTTGCCCCACCAGCTCACCTTCCCGGGTTATTTGCAGATAGGAAAATAAATAAAGCCGGCATTCGTTAACGCAGTTCACGCGCATACTGCTGTTTGCTCTGGATCTAACATGGTCCTTTGGCGACGCCAGGCTCCGGGAGAGCAAAGCACCGTGTCAGGGCCATGATCCGGGCTCGCC,0.354
TTGGAGACTAACAGAAGGAATATATATTTTTTGAAGAGAAAAAAAACACAATTATCTTATTTTTGTCCTGGCTCTAACTTTGGCCAGTGTCAAAGTAAACAGGATAGATGGCTTCTCCATGCTAAATGATGCTAGATTAACATTGAAAGAAAAATTATAGTGATCAGTTATTTCAGTTTCAAATGTCCCAAAT,0.228

# Block 4
# Target: ABI1, truncated, D143A, DHFR fusion (Arabidopsis thaliana)
# Technique: DHFR PCA, deep sequencing
# Medium: yeast
# Setting: methotrexate growth selection, single substitutions
# With: (+)-ABA 200 µM
# Reference: wild-type fitted maximum
# Direction: higher = stronger binding
# Starting sequence: PYL1, truncated, DHFR fusion (Arabidopsis thaliana); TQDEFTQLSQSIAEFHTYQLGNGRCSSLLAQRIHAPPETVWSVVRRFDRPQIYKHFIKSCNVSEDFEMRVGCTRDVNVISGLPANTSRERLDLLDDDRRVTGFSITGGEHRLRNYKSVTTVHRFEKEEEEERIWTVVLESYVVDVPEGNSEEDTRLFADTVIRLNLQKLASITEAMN
Change,relative binding score
T6H,102%
V143P,-7.1%
R46H,71.9%
T160Y,89.3%
E152L,91.5%
E131M,108%
V76Y,90.3%
V136G,19.2%
L28Q,82.8%
T73I,108%
I172M,89.5%
K126E,109%
E109S,101%
S9D,100%

# Block 5
# Target: ATP-dependent RNA helicase DDX3X, helicase core (DDX3X, Homo sapiens, UniProt O00571, residues 132-607)
# Sequence of UniProt O00571 (132-607, looked up): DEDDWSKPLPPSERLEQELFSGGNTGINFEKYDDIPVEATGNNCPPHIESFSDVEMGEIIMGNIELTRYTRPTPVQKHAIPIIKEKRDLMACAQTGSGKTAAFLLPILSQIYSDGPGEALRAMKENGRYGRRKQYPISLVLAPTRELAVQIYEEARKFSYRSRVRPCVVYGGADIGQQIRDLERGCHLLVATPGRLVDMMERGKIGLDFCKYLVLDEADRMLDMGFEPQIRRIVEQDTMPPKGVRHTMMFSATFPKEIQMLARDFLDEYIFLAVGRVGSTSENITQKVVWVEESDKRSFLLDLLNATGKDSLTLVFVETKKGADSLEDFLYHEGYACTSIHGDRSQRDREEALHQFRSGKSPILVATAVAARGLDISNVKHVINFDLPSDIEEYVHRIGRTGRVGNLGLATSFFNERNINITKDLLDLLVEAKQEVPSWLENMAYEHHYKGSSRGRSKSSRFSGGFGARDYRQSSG
# Technique: RNA Bind-n-Seq
# Molecule type: RNA
# Medium: in vitro
# Concentration: 90 pmol
# Setting: 4-mer, random 30-nt RNA, single round
# With: 3 µM DMDA-PatA, 2 mM ADP, 2 mM phosphate
# Reference: input library
# Direction: higher = stronger binding
Oligonucleotide,4-mer enrichment
UACG,0.899 fold
UCCU,0.872 fold
GAGA,1.16 fold
ACCC,1.1 fold
CGUU,1.04 fold
UGUU,1.06 fold
CGCG,1.32 fold
GUGU,1.32 fold
CCGG,0.85 fold
AGCC,0.896 fold
AGUG,1.18 fold
UUAA,1.09 fold
AGCA,0.981 fold
GCUC,0.794 fold
CAAU,0.928 fold
CGAC,0.838 fold
CCGA,0.927 fold
UAAG,1.19 fold
UGGC,0.881 fold
CCAC,1.09 fold
UAGG,1.17 fold
UAGC,0.857 fold
AUUC,0.878 fold
AGCU,0.799 fold

# Excerpt of the above (block 5):
Oligonucleotide,4-mer enrichment
ACCC,1.1 fold
AUUC,0.878 fold
AGCU,0.799 fold
UAGG,1.17 fold
CCAC,1.09 fold
